Published values gathered from unrelated publications.
Target: Dual specificity testis-specific protein kinase 1 (TESK1, Homo sapiens, UniProt Q15569)

Compound | assay | test system | setting | measurement | value
CCN1CCN(Cc2ccc(C(=O)Nc3ccc(C)c(NCc4cnc5[nH]ccc5c4OC)c3)cc2C(F)(F)F)CC1 | binding, competition with immobilised ligand | – | 1 µM | remaining binding | 94%
C=CC(=O)N1Cc2nc(-c3cc(-c4cc(Cl)cnc4Cl)c(F)cc3F)n(-c3ccncn3)c2C1 | cell-free assay, inhibitor | – | 1 µM | inhibition | -0.8%
COc1cc(Nc2nc(C)cc(-c3cnn4nc(OC)ccc34)n2)cc(C(F)(F)F)c1 | binding, competition with immobilised ligand | – | 1 µM | remaining binding | 73%
Cc1ccc(-c2c(/C=C(\C#N)C(=O)NC(C)C)n(CCCO)c3ncnc(N)c23)cc1 | cell-free assay, competition with immobilised ligand | – | 1 µM | remaining binding | 84%
C=CC(=O)N1CCCC(n2c(=O)c3ncccc3n(Cc3ccc(Oc4ccccc4)cc3)c2=O)C1 (stereo not shown) | cell-free assay, competition with immobilised ligand | – | 1 µM | remaining binding | 100%
CC(C)=CC1OC(C)(C)C2C=C3C(=O)C(Cl)=CC(O)C3C3C(O)C4OC4C(=O)C132 (stereo not shown) | cell-free assay, competition with immobilised ligand | – | 10 µM | remaining binding | 93%
Cc1ccc(C(=O)Nc2ccc(CN3CCN(C)CC3)c(C(F)(F)F)c2)cc1C#Cc1cnc2cccnn12 | target engagement, NanoBRET | human cells | – | upper asymptote | 1170
NC(=O)C[C@H]1CCc2sc3ncnc(O[C@H]4CC[C@H](N5CCOCC5)CC4)c3c21 | enzyme activity, inhibitor | – | 10 µM | inhibition | 14%
CNC(=O)C1CCN(c2cc(C)c(F)cc2NC(=O)c2ccc(-c3cc(O)ccc3C)c(C)c2)CC1 | binding, competition with immobilised ligand | – | 1 µM | remaining binding | 99%
CN1CCN(Cc2ccc(-c3ccc(CO[C@H]4CCC[C@@H]4NC(=O)c4cc(-c5cnn(C)c5)cnc4N)cc3)cc2)CC1 | enzyme activity, inhibitor | – | 0.1 µM | inhibition | -7%

Excerpt of the above:
Compound | assay | test system | setting | measurement | value
C=CC(=O)N1Cc2nc(-c3cc(-c4cc(Cl)cnc4Cl)c(F)cc3F)n(-c3ccncn3)c2C1 | cell-free assay, inhibitor | – | 1 µM | inhibition | -0.8%
